# Published values of several laboratories.
# A part holds a random share of what one study measured.

# Set 1
# Target: RNA binding protein fox-1 homolog 2, RRM domain, GST-SBP tag (RBFOX2, Homo sapiens, UniProt O43251-10, residues 100-194)
# Technique: RNA Bind-n-Seq
# Form: RNA
# Medium: in vitro
# Concentration: 365 nM
# Notes: natural RNA segment, single round, ends assumed
# Reference: no-protein control
# Reading: higher = stronger binding
# Target sequence (chain): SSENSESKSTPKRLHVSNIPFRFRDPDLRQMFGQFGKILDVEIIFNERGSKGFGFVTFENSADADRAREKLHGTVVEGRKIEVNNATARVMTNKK
Strand,RBNS enrichment (R)
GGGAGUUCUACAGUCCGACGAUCCUUAAAAAACAUGACAAGUCAUAACAGUUUUAAAGGGAAGACUUGUAAACUGGAAAAUCAUGUAUUUCUAAAGGCUGUGUACCUAUAAAUUAGUUGAGAAAGCUCUGUUUUGGAAUUCUCGGGUGCCAA,0.616
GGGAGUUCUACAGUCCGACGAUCGUCUCGCUCUGUCGCCCAGUGUGGAGUGCAGUGGUGUGAUCUUGGCUCACUGCAAACUCCGCCUCCCAGGUUCAAGCGAUUCUCCCACCUCAGCCUCCUGAGUUGGGUCCUGGAAUUCUCGGGUGCCAA,0.369
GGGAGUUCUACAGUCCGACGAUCUAUUCCCUGAAGUAUGUAAUCCUUUGUACAGCUUUUCUAUCUUACAUAUAAAAAGGAGACAUGAGAAAGUACUUUUCUCUAGAGCUCCAACACUACUGGCUCUUGCUUUUUGGAAUUCUCGGGUGCCAA,0.963
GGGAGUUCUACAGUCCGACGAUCUCCCUAGGUCCUUCCCUGGCUUGUUAUAACGCAAAGCUUGGUUGUUUAUGCAACUCUAUCUUAAGAACUGCCCAGCCUCAGCUGAAAACCCGAAUCUGAGAAGGAAUUGCUGGAAUUCUCGGGUGCCAA,1.84
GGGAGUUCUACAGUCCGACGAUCCACUUUUGGUCAAUAUGUCAAAAUUCGGGGUCCACGCCAGGCUUGGGGGGCUUGGGAGUGUUUGUCAUGUGUCCUCAGUCCCAUGGAUUUGAAAUGACCCCUCCUCGCUGUGGAAUUCUCGGGUGCCAA,2.3
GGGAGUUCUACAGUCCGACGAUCGGACUAGAAUAAAGACCUCUGGGGCUGGAGAGAGAGCUCAGUGGUUAAGAGUACUGGCUGUUGGGGUUGGUGAUUUAGCUCAGUGGCAGAGCACUUGCCUAGCAAGCACAUGGAAUUCUCGGGUGCCAA,0.57
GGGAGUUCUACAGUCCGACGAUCUGUGGUUCUUUUCAGUGUGCCUGCAUAGCGUUCCUGUGUGUACCCCAAGGAUAACUGUAUGCUAUCCUUUCCCUAUCGGUCCCACUGUGCUGUGUUCAGCACAUUUUAGGUGGAAUUCUCGGGUGCCAA,0.321
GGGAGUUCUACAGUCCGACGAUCGUGCUUCACCCAGUUUGGAACUUUAAUCUGUAACCCAUGGAUCCACAGAUUUUCUUGGGAGCUUGAAUAGCCCUUCUUGGACAAUGGGGUCUGGAAAUAGGGCUGUCUGCUGGAAUUCUCGGGUGCCAA,0.577
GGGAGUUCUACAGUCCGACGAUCUGAUAUAAAGUUAGGAUUUGGGAAACGUGUAGUUAACAACUUGGAAACAUGAAGAUAUUAAAAUGGCAGCUGGCUAACUGUCUCUUAAGCCACUAUGCAAUUUCUACCAAUGGAAUUCUCGGGUGCCAA,0.536
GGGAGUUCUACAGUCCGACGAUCAGCUGAGGUCUAGGUCUUCUUAAAGGUCAAGUCUGCUCUCCCUCGCCUAAAGUGCAGCAGCAGCUCCUCUCAAGCUCACUCUCUAGGUCUCCAGGGUAGGAGUGUUUUUCUGGAAUUCUCGGGUGCCAA,0.329
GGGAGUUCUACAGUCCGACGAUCCUCCGGCCCCCGUCUUGUAAAAAGGGGAGGAGAAUUAGCCAAACACUGUAAGCUUUUAAGAAAAACAAAGUUUUAAACGAAAUACUGCUCUGUCCAGAGGCUUUAAAACUUGGAAUUCUCGGGUGCCAA,1.78
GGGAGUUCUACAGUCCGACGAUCGGCAGGAUCUGCUACAAGGGUAAAGCUGGCCCUUGGAACUACAAUCCUGAGGAAGUCCGAGCUGUCCUGGAAAAGCUUUGCACUCCACCUAGACACGUGCCUCAGCUCUAUGGAAUUCUCGGGUGCCAA,0.374

# Set 2
# Target: Ras GTPase-activating protein-binding protein 1, C-terminal RGG region (G3BP1, Homo sapiens, UniProt Q13283)
# Chain of UniProt Q13283 (whole entry, looked up): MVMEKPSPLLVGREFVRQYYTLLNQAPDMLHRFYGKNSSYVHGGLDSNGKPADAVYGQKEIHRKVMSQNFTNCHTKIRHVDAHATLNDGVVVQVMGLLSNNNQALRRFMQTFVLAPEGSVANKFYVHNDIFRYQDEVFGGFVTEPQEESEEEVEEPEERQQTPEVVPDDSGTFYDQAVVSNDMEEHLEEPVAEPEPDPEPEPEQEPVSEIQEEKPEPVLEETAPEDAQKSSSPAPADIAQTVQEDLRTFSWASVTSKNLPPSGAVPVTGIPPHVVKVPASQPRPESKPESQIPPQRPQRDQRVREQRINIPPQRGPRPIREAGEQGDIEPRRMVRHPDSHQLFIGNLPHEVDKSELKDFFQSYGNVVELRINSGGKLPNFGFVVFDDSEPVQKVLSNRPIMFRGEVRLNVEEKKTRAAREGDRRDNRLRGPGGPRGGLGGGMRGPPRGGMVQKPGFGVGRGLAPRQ
# Technique: RNA Bind-n-Seq
# Form: RNA
# Medium: in vitro
# Concentration: 1 µM
# Notes: whole 134-nt RNA, ends assumed
# Together with: 150 mM KCl
# Reference: input library
# Reading: higher = stronger binding
Strand,log2 enrichment
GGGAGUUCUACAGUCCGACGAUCCAAGUCCUGUGCUACACAUCGUAUGUACCGAAUCGGGUUUGGGAGGGAAAAAGGGAAAGUAUUAUGUUACGCCGUUCGGAUCUGCACUUCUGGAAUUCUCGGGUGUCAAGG,2.05
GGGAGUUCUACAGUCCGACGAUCCUGUGCUACACAUCGUAUGUACCGAAUCGGGGUUUUUUGGGGUUUUUUGGGGUUUUUUGGGAAAGUAUUAUGUUACGCCGUUCGGAUCUGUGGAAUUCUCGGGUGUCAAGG,-0.59
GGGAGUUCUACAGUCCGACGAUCUGGCCCUGGUGGCAUGCGGGGAGGAAGAGGUGGCCUGAUGGAUCGUGGUGGUCCCGGUGGAAUGUUCAGAGGUGGCCGUGGUGGAGACAGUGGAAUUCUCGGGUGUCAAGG,2.13
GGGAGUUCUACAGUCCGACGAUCUGGCCCUGGUGGCAUGCGGGGAGGAAGAGGUGGCAUCAUGGAUCGUGGUGGUCCCGGUGGAAUGUUCAGAGGUGGCCGUGGUGGAGACAGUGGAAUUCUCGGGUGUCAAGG,2.12
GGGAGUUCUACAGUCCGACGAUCGCAGGAAGUAAAAACAAAUGGAAAUGCUUCGGAUAGUGGCAGGGGUGGGGGUUGCUAAGGAAAGAAAGGGAUGGGAGUGGGUAAAGAGUUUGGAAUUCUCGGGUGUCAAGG,2.04
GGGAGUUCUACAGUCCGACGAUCGCAGGAAGUAAAAACAAAUGGAAAUGCUUCGGAUAGUGGCAGGGGUGGGGGUUGCUCAGGAAAGGGUGGGAUGGGAGUGGGUAAAGAGUUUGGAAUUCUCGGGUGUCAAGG,1.49
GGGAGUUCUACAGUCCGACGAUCUCCUGUGCUACACAUCGUAUGUACCGAAUCGGGUUUUUGGGGUUUUUGGGGUUUUUGGGGAAAGUAUUAUGUUACGCCGUUCGGAUCUGCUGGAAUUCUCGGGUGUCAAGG,0.618
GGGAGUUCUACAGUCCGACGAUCUGGGAGGUGGAUUUUGUUUAUUUUUUUAGCUCAUUUCCAGGGAUGGGAAUUUUUUUUUAAUAUGUGUCAUGAAUAAAGUUGUUUUUGAAAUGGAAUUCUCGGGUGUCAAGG,2.42
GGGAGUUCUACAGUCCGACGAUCUCCAUGCAGGUGGGCAUCUUUGGGAAGUGGGGCAAGGGGGGGAUAGGGAGGGGGGUAACACUUUGGGAACAGGUGGUCCCAGGUCGUUUCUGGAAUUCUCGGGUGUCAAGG,-1.1
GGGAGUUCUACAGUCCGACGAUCGAAACUACCCGUGUGUAAAAAGAAGAUUGGCUUAAAAUGGCUACUGUGAUGGGAACAGUGUCUUAGGGAGAUGCAGCUUGGACUUGAGGUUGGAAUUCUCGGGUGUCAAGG,0.0638

# Set 3
# Target: Microphthalmia-associated transcription factor, full length (MITF, Homo sapiens, UniProt O75030-10, residues 1-413)
# Technique: protein-binding microarray
# Form: double-stranded DNA, one strand shown
# Medium: in vitro
# Concentration: not given
# Notes: k-mer, scored over probes, only values ≥0.25
# Reading: higher = stronger binding
# Target sequence (chain): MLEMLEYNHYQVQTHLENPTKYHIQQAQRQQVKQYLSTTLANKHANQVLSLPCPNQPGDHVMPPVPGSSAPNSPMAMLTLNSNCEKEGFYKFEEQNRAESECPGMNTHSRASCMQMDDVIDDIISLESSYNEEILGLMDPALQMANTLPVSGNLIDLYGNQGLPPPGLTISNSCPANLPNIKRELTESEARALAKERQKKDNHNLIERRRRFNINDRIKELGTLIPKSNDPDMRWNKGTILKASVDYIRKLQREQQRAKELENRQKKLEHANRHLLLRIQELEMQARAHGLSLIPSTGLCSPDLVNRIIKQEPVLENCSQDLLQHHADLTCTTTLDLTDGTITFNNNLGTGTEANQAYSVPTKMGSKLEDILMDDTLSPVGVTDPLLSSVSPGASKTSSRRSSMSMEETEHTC
Strand,E-score
CATGACG,0.371
ACATGTG,0.423
ATGACAA,0.26
GTGATTA,0.287
CCACGGG,0.371
GTGGTCA,0.34
AACGTGA,0.395
CACACAC,0.274
ACATGTC,0.268
CGTGGTC,0.28
GTCATCA,0.265
ATCATGC,0.38
CGTGCCC,0.261
CACGCGC,0.442
CTGTCAC,0.338
ATCACAA,0.267
CCCGTGC,0.388
ATGCATC,0.298
AATCACA,0.31
CATGCGC,0.307
CGTGGCA,0.265
CCCGTGA,0.47
CACAAGA,0.301
CCCATGA,0.411
GTGACTA,0.321

# Set 4
# Target: Sal-like protein 4, full length isoform B (SALL4, Homo sapiens, UniProt Q9UJQ4-2, residues 1-616)
# Technique: universal PBM
# Form: double-stranded DNA, one strand shown
# Medium: in vitro
# Concentration: not given
# Notes: 8-mer, flanks averaged, mean of replicates
# Reading: higher = stronger binding
Strand,E-score
AAACCGTC,-0.0909
CATGTGGC,0.00171
ATCGCCGC,-0.189
CCCTTCAA,-0.0676
ATGGCGCC,-0.213
AAAGTACC,0.0694
TGATTAAA,0.302
ACCTGTAT,0.0906
CAGTTCTC,-0.0887
AAATACCT,0.168
CGTCGAAC,-0.185
GGTCATAC,0.0324
ACCCGCGA,-0.174
AAGCAGGC,-0.251
CGCGTGGC,-0.292
AACACGGC,-0.136

# Some of these lines once more (set 3):
Strand,E-score
ATGACAA,0.26
CGTGGCA,0.265
ATGCATC,0.298
AACGTGA,0.395
CACACAC,0.274
ACATGTG,0.423
CATGCGC,0.307
